Results pooled from the literature.
Protocols differ between the studies behind these lines.
TMPRSS2: Transmembrane protease serine 2 (TMPRSS2, Homo sapiens, UniProt O15393)
Chain of UniProt O15393 (whole entry, looked up): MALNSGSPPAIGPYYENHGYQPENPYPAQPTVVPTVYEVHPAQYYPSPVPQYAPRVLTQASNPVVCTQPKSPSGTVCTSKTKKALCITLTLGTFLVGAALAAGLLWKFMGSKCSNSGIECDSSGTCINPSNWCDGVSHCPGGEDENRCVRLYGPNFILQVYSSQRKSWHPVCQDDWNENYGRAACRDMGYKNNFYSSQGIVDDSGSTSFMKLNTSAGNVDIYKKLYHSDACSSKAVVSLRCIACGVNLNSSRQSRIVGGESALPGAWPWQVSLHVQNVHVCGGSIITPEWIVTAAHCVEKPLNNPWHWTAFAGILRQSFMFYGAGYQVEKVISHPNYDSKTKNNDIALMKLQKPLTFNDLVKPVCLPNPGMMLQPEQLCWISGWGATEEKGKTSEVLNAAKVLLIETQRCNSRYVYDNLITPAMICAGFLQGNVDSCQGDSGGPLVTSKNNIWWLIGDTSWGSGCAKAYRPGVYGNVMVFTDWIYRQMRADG
Chain of UniProt P10721 (whole entry, looked up): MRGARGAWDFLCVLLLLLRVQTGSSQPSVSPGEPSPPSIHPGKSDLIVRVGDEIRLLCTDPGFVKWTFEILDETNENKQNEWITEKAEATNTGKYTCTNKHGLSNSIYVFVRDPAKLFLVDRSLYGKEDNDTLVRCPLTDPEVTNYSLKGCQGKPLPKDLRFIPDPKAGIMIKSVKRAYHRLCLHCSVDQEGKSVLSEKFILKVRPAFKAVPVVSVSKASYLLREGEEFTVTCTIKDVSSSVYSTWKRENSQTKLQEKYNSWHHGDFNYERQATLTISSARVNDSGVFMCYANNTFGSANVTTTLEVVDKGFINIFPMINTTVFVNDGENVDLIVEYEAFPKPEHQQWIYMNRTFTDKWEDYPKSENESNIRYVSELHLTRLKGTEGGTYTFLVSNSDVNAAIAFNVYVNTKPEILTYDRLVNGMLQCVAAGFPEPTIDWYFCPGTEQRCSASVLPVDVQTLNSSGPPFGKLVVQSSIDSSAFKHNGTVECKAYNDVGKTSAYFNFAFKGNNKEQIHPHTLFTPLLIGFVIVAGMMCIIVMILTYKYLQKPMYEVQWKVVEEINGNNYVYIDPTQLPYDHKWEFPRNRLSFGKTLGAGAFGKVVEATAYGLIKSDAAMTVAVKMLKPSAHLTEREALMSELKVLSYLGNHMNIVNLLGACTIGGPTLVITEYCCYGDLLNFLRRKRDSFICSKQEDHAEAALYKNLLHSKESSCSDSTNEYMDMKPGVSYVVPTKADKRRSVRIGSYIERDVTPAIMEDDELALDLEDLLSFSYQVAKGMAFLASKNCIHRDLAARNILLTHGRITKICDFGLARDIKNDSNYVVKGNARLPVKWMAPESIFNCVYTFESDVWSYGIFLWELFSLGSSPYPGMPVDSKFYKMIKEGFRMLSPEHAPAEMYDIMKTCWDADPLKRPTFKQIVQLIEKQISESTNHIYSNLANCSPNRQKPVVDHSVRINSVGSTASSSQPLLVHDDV
Chain of UniProt P21554 (whole entry, looked up): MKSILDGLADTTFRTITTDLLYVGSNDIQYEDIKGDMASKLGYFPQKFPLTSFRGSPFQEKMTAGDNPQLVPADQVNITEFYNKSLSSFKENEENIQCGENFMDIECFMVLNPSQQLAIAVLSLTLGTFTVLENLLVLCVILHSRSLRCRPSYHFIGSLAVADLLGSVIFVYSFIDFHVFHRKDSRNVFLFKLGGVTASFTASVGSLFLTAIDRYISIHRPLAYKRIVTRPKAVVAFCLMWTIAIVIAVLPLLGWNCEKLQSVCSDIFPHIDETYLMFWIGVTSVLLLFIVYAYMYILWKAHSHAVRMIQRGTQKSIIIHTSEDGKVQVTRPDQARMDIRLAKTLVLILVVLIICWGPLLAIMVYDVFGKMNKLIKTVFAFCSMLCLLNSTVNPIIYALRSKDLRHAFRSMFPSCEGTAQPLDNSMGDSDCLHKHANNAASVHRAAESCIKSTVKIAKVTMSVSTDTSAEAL
Chain of UniProt Q9UIK4 (whole entry, looked up): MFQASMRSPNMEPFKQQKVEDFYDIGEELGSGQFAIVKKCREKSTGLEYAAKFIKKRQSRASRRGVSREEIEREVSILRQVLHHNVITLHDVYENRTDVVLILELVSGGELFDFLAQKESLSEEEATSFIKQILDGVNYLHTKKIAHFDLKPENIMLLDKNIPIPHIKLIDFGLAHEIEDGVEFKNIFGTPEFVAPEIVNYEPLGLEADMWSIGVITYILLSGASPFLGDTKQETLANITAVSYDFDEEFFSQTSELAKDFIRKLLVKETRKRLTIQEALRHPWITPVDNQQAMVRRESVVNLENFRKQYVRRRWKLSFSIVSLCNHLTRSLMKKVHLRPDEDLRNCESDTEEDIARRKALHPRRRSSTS
Chain of UniProt Q9H792 (whole entry, looked up): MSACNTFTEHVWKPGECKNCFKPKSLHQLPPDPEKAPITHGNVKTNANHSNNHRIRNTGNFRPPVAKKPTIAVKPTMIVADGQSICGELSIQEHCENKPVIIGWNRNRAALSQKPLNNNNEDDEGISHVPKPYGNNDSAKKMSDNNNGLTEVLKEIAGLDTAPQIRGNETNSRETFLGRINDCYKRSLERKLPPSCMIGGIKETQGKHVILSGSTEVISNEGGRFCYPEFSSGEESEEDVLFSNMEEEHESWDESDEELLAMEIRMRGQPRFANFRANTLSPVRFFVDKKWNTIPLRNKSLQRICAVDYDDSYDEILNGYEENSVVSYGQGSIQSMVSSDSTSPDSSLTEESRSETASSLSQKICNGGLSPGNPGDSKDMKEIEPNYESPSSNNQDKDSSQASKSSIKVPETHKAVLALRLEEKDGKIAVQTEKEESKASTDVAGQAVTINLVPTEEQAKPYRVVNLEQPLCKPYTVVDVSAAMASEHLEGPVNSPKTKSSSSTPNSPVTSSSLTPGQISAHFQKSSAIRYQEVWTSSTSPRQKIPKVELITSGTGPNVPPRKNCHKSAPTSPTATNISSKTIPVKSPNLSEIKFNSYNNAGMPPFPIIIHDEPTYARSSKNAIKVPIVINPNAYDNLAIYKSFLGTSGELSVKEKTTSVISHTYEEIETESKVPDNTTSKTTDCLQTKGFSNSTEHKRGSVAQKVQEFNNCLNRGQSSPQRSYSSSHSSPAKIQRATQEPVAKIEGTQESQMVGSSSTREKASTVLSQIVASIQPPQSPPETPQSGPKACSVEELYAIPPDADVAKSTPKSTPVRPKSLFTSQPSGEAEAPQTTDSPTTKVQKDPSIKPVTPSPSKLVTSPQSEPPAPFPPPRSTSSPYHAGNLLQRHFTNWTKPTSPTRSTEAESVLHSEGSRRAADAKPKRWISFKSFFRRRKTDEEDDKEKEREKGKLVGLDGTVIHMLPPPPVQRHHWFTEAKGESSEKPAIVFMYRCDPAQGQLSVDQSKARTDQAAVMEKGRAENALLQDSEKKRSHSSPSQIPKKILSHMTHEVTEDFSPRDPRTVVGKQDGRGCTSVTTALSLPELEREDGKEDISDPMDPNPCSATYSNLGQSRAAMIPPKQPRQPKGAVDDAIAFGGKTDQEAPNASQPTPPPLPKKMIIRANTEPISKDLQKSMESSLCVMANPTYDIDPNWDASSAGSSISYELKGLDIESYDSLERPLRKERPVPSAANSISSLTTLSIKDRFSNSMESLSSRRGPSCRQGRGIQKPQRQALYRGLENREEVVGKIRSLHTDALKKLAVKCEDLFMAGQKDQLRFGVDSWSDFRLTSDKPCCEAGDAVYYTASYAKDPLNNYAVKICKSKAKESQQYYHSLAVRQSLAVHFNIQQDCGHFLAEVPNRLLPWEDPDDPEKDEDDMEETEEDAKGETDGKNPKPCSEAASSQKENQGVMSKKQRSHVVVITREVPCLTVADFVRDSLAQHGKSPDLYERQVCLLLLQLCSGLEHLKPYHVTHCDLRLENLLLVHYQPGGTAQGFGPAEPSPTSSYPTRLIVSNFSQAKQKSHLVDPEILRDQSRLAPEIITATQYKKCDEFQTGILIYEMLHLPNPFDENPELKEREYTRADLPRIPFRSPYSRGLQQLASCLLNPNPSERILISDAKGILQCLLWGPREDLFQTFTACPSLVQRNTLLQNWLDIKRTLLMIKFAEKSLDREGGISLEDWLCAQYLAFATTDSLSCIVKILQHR
Chain of UniProt P41144 (whole entry, looked up): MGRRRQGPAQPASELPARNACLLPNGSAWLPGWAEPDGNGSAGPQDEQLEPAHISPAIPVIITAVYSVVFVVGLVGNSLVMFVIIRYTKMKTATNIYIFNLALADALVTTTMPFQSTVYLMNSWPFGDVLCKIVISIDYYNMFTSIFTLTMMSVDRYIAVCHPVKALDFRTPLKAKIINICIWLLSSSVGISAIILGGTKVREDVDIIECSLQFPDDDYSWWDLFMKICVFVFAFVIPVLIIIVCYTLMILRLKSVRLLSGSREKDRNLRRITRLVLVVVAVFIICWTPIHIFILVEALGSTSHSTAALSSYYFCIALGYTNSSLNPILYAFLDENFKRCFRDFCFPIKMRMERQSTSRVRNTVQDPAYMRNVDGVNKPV
Chain of UniProt P32239 (whole entry, looked up): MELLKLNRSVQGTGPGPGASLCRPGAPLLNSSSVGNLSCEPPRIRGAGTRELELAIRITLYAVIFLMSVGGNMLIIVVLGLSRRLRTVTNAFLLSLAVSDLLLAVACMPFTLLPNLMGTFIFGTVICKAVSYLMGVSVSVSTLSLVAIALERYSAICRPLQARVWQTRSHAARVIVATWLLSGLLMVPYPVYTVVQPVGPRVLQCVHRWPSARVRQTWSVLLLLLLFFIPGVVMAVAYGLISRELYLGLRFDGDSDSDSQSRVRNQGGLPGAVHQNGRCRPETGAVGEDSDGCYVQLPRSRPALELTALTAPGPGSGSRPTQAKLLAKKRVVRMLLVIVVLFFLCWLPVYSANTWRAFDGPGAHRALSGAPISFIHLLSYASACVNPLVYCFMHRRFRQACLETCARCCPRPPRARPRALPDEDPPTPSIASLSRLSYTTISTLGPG

| SMILES | target | test | setting | measurement | value |
| --- | --- | --- | --- | --- | --- |
| Nc1ncc(-c2nc(N3CCOCC3)nc(N3CCOCC3)n2)c(C(F)F)n1 | Mast/stem cell growth factor receptor Kit, autoinhibited (KIT, Homo sapiens, UniProt P10721) | binding, competition with immobilised ligand | 10 µM | remaining binding | 4.8% |
| N=C(N)NCCC[C@@H](NC(=O)[C@H](CCC(N)=O)NC(=O)[C@H](Cc1cscn1)NC(=O)CCc1ccccc1)C(=O)c1nc2ccccc2s1 | TMPRSS2 | enzyme activity, inhibitor | 1 nM | activity vs control | 72% |
| COc1ncccc1-c1cnn2ccc(N3CCN(C(=O)OC(C)C)CC3)nc12 | DCLK3 (Homo sapiens, UniProt Q9C098) | binding, competition with immobilised ligand | 1 µM | remaining binding | 100% |
| CC(C)CC(=O)OC[C@H]1O[C@@](C#N)(c2ccc3c(N)ncnn23)[C@H](O)[C@@H]1O | CCKBR (Homo sapiens, UniProt P32239) | cell-free assay | 20 µM | inhibition | 10% |
| [2H]c1c([2H])c([C@]2([2H])CCCN2C(=O)C(C)(C)Oc2ccc3cn[nH]c3c2)c([2H])c([2H])c1C([2H])([2H])[2H] | DAPK2 (Homo sapiens, UniProt Q9UIK4) | binding, competition with immobilised ligand | 1 µM | remaining binding | 88% |
| CC(C)[C@H](NC(=O)[C@H](CCc1ccccc1)NC(=O)CCc1ccc2ccccc2c1)C(=O)N[C@@H](CCCNC(=N)N)C(=O)c1nc2ccccc2s1 | TMPRSS2 | enzyme activity, inhibitor | 1 nM | activity vs control | 84% |
| C#Cc1n[nH]c2c(-c3cn(C(C)c4ccccn4)c(=O)[nH]c3=O)cc(F)cc12 (stereo not drawn) | PEAK1 (Homo sapiens, UniProt Q9H792) | enzyme activity, inhibitor | 1 µM | inhibition | -16.4% |
| CC(C)[C@H](NC(=O)[C@H](Cc1cccc(Cl)c1)NC(=O)[C@@H](N)Cc1ccc(O)cc1)C(=O)N[C@H](CCCNC(=N)N)C(=O)c1nc2ccccc2s1 | TMPRSS2 | enzyme activity, inhibitor | 1 nM | activity vs control | 97% |
| CCCCC/C=C\[C@H](C)/C=C\C/C=C\Cc1ccccc1CCCC(=O)N[C@H](C)CO | CNR1 (Homo sapiens, UniProt P21554) | β-arrestin recruitment, agonist | – | Emax | 28% |
| Cc1nn(C)cc1-c1nc2c(N3CCN(Cc4ccc(Cl)cc4)CC3)c(Cl)cnc2[nH]1 | Tyrosine-protein kinase ABL1, phosphorylated (ABL1, Homo sapiens, UniProt P00519, T315I) | binding, competition with immobilised ligand | 1 µM | remaining binding | 85% |
| Oc1ccc(C[C@@H]2CN([C@H](Cc3ccc4ccccc4c3)CN3CCC[C@H]3CN3CCNC[C@@H]3Cc3ccc4ccccc4c3)CCN2CCC23CC4CC(CC(C4)C2)C3)cc1 | OPRK1 (Cavia porcellus, UniProt P41144) | ligand displacement, radioligand | 0.5 µM, pH 7.5 | remaining binding | 98.7% |
| CC[C@H](C)[C@@H](NC(=O)[C@H](CCc1ccccc1)NC(=O)CCc1ccccc1)C(=O)N[C@@H](CCCNC(=N)N)C(=O)c1nc2ccccc2s1 | TMPRSS2 | enzyme activity, inhibitor | 1 nM | activity vs control | 97% |

Some of these lines once more:
| SMILES | target | test | setting | measurement | value |
| --- | --- | --- | --- | --- | --- |
| N=C(N)NCCC[C@@H](NC(=O)[C@H](CCC(N)=O)NC(=O)[C@H](Cc1cscn1)NC(=O)CCc1ccccc1)C(=O)c1nc2ccccc2s1 | TMPRSS2 | enzyme activity, inhibitor | 1 nM | activity vs control | 72% |
